Measured values pooled from the literature.
Protocols differ between the studies behind these lines. “And” joins repeats or separate records; there may be more than shown. ± gives the spread as reported.

Compound = CC(C)[C@@H]1NC(=O)CNC(=O)[C@H](CC(N)=O)NC(=O)[C@H](CCCNC(=N)N)NC(=O)[C@H](Cc2ccc(O)cc2)NC(=O)[C@H](C(C)C)NC(=O)[C@@H](NC(=O)[C@@H](NC(=O)[C@H](CC(N)=O)NC(=O)[C@H](Cc2c[nH]c3ccccc23)NC(=O)[C@H](C)NC(=O)[C@H](Cc2ccccc2)NC(=O)CNC(=O)[C@H](CCCCN)NC(=O)[C@H](Cc2ccccc2)NC(=O)[C@H](Cc2ccccc2)NC(=O)[C@H](CCCCN)NC(=O)OCC2c3ccccc3-c3ccccc32)C(C)C)CSSC[C@@H](C(=O)N[C@@H](Cc2c[nH]cn2)C(=O)N[C@@H](CCCNC(=N)N)C(=O)N[C@@H](CCCNC(=N)N)C(=O)N[C@@H](C)C(=O)N[C@@H](CC(N)=O)C(N)=O)NC(=O)[C@H](C(C)C)NC(=O)[C@H](CCCNC(=N)N)NC1=O; test system = ICR mice, serum; setting = intraperitoneal, 5 mg/kg, day 5; endpoint = phosphorus; result = 3.29 ± 0.17 mmol/L
Compound = N=C(N)NCCC[C@@H](NC(=O)[C@H](N)Cc1c[nH]c2ccccc12)C(=O)N[C@H](CCCCN)C(=O)N[C@H](Cc1c[nH]c2ccccc12)C(=O)N[C@H](CCCNC(=N)N)C(=O)N[C@H](CCCCN)C(=O)N[C@H](Cc1c[nH]c2ccccc12)C(=O)N[C@H](CCCNC(=N)N)C(=O)N[C@H](CCCCN)C(=O)N[C@H](Cc1c[nH]c2ccccc12)C(=O)N[C@H](CCCNC(=N)N)C(=O)N[C@H](CCCCN)C(N)=O; test system = mouse, liver; setting = intravenous, 30 mg/kg single dose, 7 days; endpoint = organ index; result = 4.8
Compound = C=CC(=O)Nc1cccc(Cn2ncc3cnc(Nc4cnn(CCOC)c4)nc32)c1; test system = male Sprague-Dawley rat; setting = oral, 180 mg/kg/day, day 28, 28-day subacute toxicity; endpoint = blood MCV; result = 57.6 ± 1.98 fL
Compound = CCCCCCCCCCCCCCCC(=O)N[C@@H](CCC(=O)NCCOCCOCCC(=O)NCCOCCOCCC(=O)NCCCC[C@H](NC(=O)[C@H](CC(=O)O)NC(=O)[C@H](CC(C)C)NC(=O)[C@H](Cc1ccc(O)cc1)NC(=O)[C@H](CCCCN)NC(=O)[C@H](CO)NC(=O)[C@H](Cc1ccc(O)cc1)NC(=O)[C@H](CC(=O)O)NC(=O)[C@H](CO)NC(=O)[C@@H](NC(=O)[C@H](Cc1ccccc1)NC(=O)[C@@H](NC(=O)CNC(=O)[C@H](CCC(N)=O)NC(=O)[C@@H](CO)NC(=O)[C@@H](N)Cc1c[nH]cn1)[C@@H](C)O)[C@@H](C)O)C(=O)N[C@@H](CCCNC(=N)N)C(=O)N[C@@H](CCCNC(=N)N)C(=O)N[C@@H](C)C(=O)N[C@@H](CCC(N)=O)C(=O)N[C@@H](CC(=O)O)C(=O)N[C@@H](Cc1ccccc1)C(=O)N[C@H](C(=O)N[C@@H](CCC(N)=O)C(=O)N[C@@H](Cc1c[nH]c2ccccc12)C(=O)N[C@@H](CC(C)C)C(=O)N[C@@H](CC(C)C)C(=O)N[C@@H](CC(N)=O)C(=O)N[C@H](C(=O)NCC(=O)NCC(=O)N1CCC[C@H]1C(=O)N[C@@H](CO)C(=O)N[C@@H](CO)C(=O)NCC(=O)N[C@@H](C)C(=O)N1CCC[C@H]1C(=O)N1CCC[C@H]1C(=O)N1CCC[C@H]1C(=O)N[C@@H](CO)C(N)=O)[C@@H](C)O)C(C)C)C(=O)O; test system = Sprague-Dawley rat, male; setting = subcutaneous, 100 µg/kg once daily, 14 days; endpoint = urea; result = 3.74 ± 0.95 mmol/L
Compound = CC(=O)NCCCC[C@@H]1NC(=O)[C@H](Cc2c[nH]c3c(C)cccc23)NC(=O)[C@H]([C@@H](C)O)NC(=O)[C@H](CC(N)=O)NC(=O)[C@@H](NC(C)=O)C(C)(C)SSC(C)(C)[C@@H](C(=O)N[C@@H](Cc2ccc(OCCN)cc2)C(=O)N[C@@H](Cc2ccc3ccccc3c2)C(=O)NC2(C(=O)N[C@@H](CCC(=O)O)C(=O)N[C@@H](CC(N)=O)C(=O)N[C@@H](Cc3cccnc3)C(=O)N(C)CC(N)=O)CCOCC2)NC1=O; test system = cynomolgus monkey, blister fluid; setting = intravenous, 1 mg/kg; endpoint = tissue to plasma ratio; result = 46%
Compound = CCCCCCCCCCCC(=O)C(C)C(=O)N1CCC[C@H]1C(=O)NC(C)(C)C(=O)NC(C)(C)C(=O)NC(C)(C)C(=O)N[C@](C)(CC)C(=O)NCCC(=O)N[C@@H](C)C(=O)N[C@](C)(CC)C(=O)N[C@@H](C)C(=O)N[C@@H](CC(C)C)C(=O)N[C@](C)(CC)C(=O)NCCC(=O)N[C@@H](C)C(=O)N[C@](C)(CC)C(=O)NCCC(=O)N[C@@H](C)C(=O)NC(C)(C)C(=O)NC(C)(C)C(=O)NC(C)(C)C(=O)N[C@@H](C)C(=O)N[C@@H](CC(=O)O)C(=O)O (stereo partly shown); assay = LC-MS; test system = buffer with trypsin; setting = 40 µM, 30 min, pH 7.5, 37 °C; how to read = relative to: 0 h; endpoint = remaining intact peptide; result = 98.8% and 88.1% and 75.3%
Compound = CC(=O)Oc1ccc(NC(=O)CCc2ccccc2)c(C(=O)O)c1; assay = cytotoxicity, CellTiter-Glo; test system = primary brown adipocytes, mouse C57BL/6; setting = 48 h; endpoint = CC50; result = > 122 µM
Compound = CSCC[C@H](N)C(=O)N[C@@H](C)C(=O)N[C@@H](Cc1c[nH]c2ccccc12)C(=O)N[C@@H](Cc1c[nH]cn1)C(=O)N[C@@H](CC(=O)O)C(=O)N[C@@H](CC(=O)O)C(=O)N[C@@H](CCC(=O)O)C(=O)N[C@@H](CCC(=O)O)C(=O)N[C@@H](Cc1ccccc1)C(=O)N[C@@H](C)C(=O)N[C@@H](CCCNC(=N)N)C(=O)N[C@@H](CCCNC(=N)N)C(=O)N[C@@H](CCCNC(=N)N)C(=O)N[C@@H](CCCNC(=N)N)C(=O)NCCCCCC(=O)NCCCCC(NC(=O)CCCCCNC(=O)[C@H](CCCNC(=N)N)NC(=O)[C@H](CCCNC(=N)N)NC(=O)[C@H](CCCNC(=N)N)NC(=O)[C@H](CCCNC(=N)N)NC(=O)[C@H](C)NC(=O)[C@H](Cc1ccccc1)NC(=O)[C@H](CCC(=O)O)NC(=O)[C@H](CCC(=O)O)NC(=O)[C@H](CC(=O)O)NC(=O)[C@H](CC(=O)O)NC(=O)[C@H](Cc1c[nH]cn1)NC(=O)[C@H](Cc1c[nH]c2ccccc12)NC(=O)[C@H](C)NC(=O)[C@@H](N)CCSC)C(=O)NCCCCC(NC(=O)C(CCCCNC(=O)CCCCCNC(=O)[C@H](CCCNC(=N)N)NC(=O)[C@H](CCCNC(=N)N)NC(=O)[C@H](CCCNC(=N)N)NC(=O)[C@H](CCCNC(=N)N)NC(=O)[C@H](C)NC(=O)[C@H](Cc1ccccc1)NC(=O)[C@H](CCC(=O)O)NC(=O)[C@H](CCC(=O)O)NC(=O)[C@H](CC(=O)O)NC(=O)[C@H](CC(=O)O)NC(=O)[C@H](Cc1c[nH]cn1)NC(=O)[C@H](Cc1c[nH]c2ccccc12)NC(=O)[C@H](C)NC(=O)[C@@H](N)CCSC)NC(=O)CCCCCNC(=O)[C@H](CCCNC(=N)N)NC(=O)[C@H](CCCNC(=N)N)NC(=O)[C@H](CCCNC(=N)N)NC(=O)[C@H](CCCNC(=N)N)NC(=O)[C@H](C)NC(=O)[C@H](Cc1ccccc1)NC(=O)[C@H](CCC(=O)O)NC(=O)[C@H](CCC(=O)O)NC(=O)[C@H](CC(=O)O)NC(=O)[C@H](CC(=O)O)NC(=O)[C@H](Cc1c[nH]cn1)NC(=O)[C@H](Cc1c[nH]c2ccccc12)NC(=O)[C@H](C)NC(=O)[C@@H](N)CCSC)C(N)=O (stereo partly shown); test system = C57BL/6 mouse female, spine; setting = dose not given, 6 h; how to read = relative to: total; endpoint = tissue distribution; result = 5.67%
Compound = CN1Cc2cc(Cl)ccc2-n2c(nnc2C2CCN(c3cccc([18F])n3)CC2)C1; assay = PET two-tissue compartment model; test system = rhesus monkey, amygdala; setting = intravenous, dose not given, 70 min scan, baseline scan; endpoint = total volume of distribution; result = 1.08 ± 0.37 mL/cm3
Compound = CCCC(=O)N[C@@H](CCCNC(=N)N)C(=O)N[C@@H](Cc1c[nH]c2ccccc12)C(=O)N[C@@H](CCCCN)C(=O)N[C@H](C(=O)N[C@@H](Cc1ccccc1)C(=O)N[C@@H](CCCCN)C(=O)N[C@@H](CCCCN)C(=O)N[C@H](C(=O)N[C@@H](CCC(=O)O)C(=O)N[C@@H](CCCCN)C(=O)N[C@H](C(=O)NCC(=O)N[C@@H](CCC(N)=O)C(=O)N[C@@H](CC(N)=O)C(=O)N[C@H](C(=O)N[C@@H](CCCNC(=N)N)C(=O)N[C@@H](CC(=O)O)C(=O)NCC(=O)N[C@H](C(=O)N[C@H](C(=O)N[C@@H](CCCCN)C(=O)N[C@@H](C)C(=O)NCC(=O)N1CCC[C@H]1C(=O)N[C@@H](C)C(=O)N[C@H](C(=O)N[C@@H](C)C(=O)N[C@H](C(=O)N[C@H](C(=O)NCC(=O)N[C@@H](CCC(N)=O)C(=O)N[C@@H](C)C(=O)N[C@@H](C)C(=O)N[C@H](C(=O)N[C@H](C(N)=O)[C@@H](C)CC)[C@@H](C)O)C(C)C)C(C)C)C(C)C)C(C)C)[C@@H](C)CC)[C@@H](C)CC)C(C)C)[C@@H](C)CC)[C@@H](C)CC; test system = mouse erythrocytes; setting = 32 µM, 1 h, 37 °C; endpoint = hemolysis; result = < 8%
Compound = C[C@@H](Oc1ccc2c(c1)[C@H]1CCN[C@@]1(C)CO2)c1ccccc1; assay = lipid PAMPA; test system = artificial lipid membrane; setting = 10 µM, 16 h; endpoint = recovery; result = 4.9%
Compound = CC(C)(C)C(=O)OCOP(=O)(OCOC(=O)C(C)(C)C)C1CCCN(O)C1=O (stereo not shown); tested on = SN12C; endpoint = CC50; result = > 100 µM
Compound = N#[11C]c1ccc(-c2csc(NN=C3CCCC3)n2)cc1; assay = radio-HPLC; test system = C57BL/6 mouse, liver; setting = intravenous, 37 MBq, 5 min; endpoint = unchanged compound; result = 13.4% and 13%
Compound = CSCC[C@H](NC(=O)CNC(=O)[C@H](CCCCN)NC(=O)[C@H](CC(C)C)NC(=O)[C@@H]1CCCN1C(=O)[C@H](CO)NC(=O)[C@H](Cc1c[nH]cn1)NC(=O)[C@H](Cc1c[nH]c2ccccc12)NC(=O)[C@H](CCCNC(=N)N)NC(=O)[C@H](CC(C)C)NC(=O)[C@H](CCCNC(=N)N)NC(=O)[C@H](Cc1c[nH]c2ccccc12)NC(=O)[C@H](CS)NC(=O)CCCCCNC(=O)CN1CCN(CC(=O)O)CCN(CC(=O)O)CCN(CC(=O)O)CC1)C(=O)O [copper-64 labelled]; assay = PET imaging; test system = BALB/c nude mice, kidney; setting = intravenous, dose not given, 9 h, Huh-7 tumour-bearing; endpoint = tissue uptake; result = 9.35 ± 0.97 %ID/g
Compound = CCCC[C@H]1C(=O)N(C)[C@@H](CCCC)C(=O)N[C@@H](CCCNC(=O)CN2CCN(CC(=O)O)CCN(CC(=O)O)CCN(CC(=O)O)CC2)C(=O)N[C@H](C(=O)NCC(N)=O)CSCC(=O)N[C@@H](Cc2ccc(O)cc2)C(=O)N(C)[C@@H](C)C(=O)N[C@@H](CC(N)=O)C(=O)N2CCC[C@H]2C(=O)N[C@@H](Cc2c[nH]cn2)C(=O)N[C@@H](CC(C)C)C(=O)N(C)CC(=O)N[C@@H](Cc2c[nH]c3ccccc23)C(=O)N[C@@H](CO)C(=O)N[C@@H](Cc2c[nH]c3ccccc23)C(=O)N1C [gallium-68 labelled]; test system = NOD/SCID mice with CHO-hPD-L1 xenograft, liver; setting = 10 min post injection; endpoint = tissue uptake; result = 8.46 ± 0.35 %ID/g
Compound = CC[C@H](C)[C@H](NC(=O)[C@H](CCCCN)NC(=O)CNC(=O)[C@H](CC(C)C)NC(=O)[C@H](Cc1ccccc1)NC(=O)[C@H](CCCCN)NC(=O)[C@H](CO)NC(=O)[C@H](Cc1ccccc1)NC(=O)[C@H](Cc1c[nH]c2ccccc12)NC(=O)[C@H](CCC(N)=O)NC(=O)[C@@H](NC(=O)[C@H](Cc1ccccc1)NC(=O)CCCCCNC(=O)CN1CCN(CC(=O)O)CCN(CC(=O)O)CCN(CC(=O)O)CC1)C(C)C)C(=O)N[C@@H](CCC(=O)O)C(=O)N1CCC[C@H]1C(=O)N[C@@H](CC(=O)O)C(=O)N[C@H](C(=O)N[C@@H](CO)C(=O)N[C@@H](CCC(N)=O)C(=O)N[C@H](C(=O)N[C@@H](CCC(N)=O)C(=O)N[C@@H](CC(=O)O)C(=O)N1CCC[C@H]1C(=O)N[C@@H](CC(N)=O)C(=O)N[C@@H](CC(=O)O)C(=O)N[C@@H](CCC(N)=O)C(=O)N[C@@H](Cc1ccc(O)cc1)C(=O)N[C@@H](CCC(=O)O)C(=O)N1CCC[C@H]1C(=O)N[C@@H](Cc1ccccc1)C(=O)O)C(C)C)C(C)C [copper-64 labelled]; test system = C57BL/6 male mouse, tumour-naive, thymus; setting = 1 h; endpoint = tissue uptake; result = 2.43 ± 0.2 %ID/g
Compound = O=C1NC2(CC2)COc2ncc(F)cc2[C@H]2COCCN2c2ccn3ncc1c3n2; test system = Sprague-Dawley rats, male, blood; setting = oral, 2.5 mg/kg/day, end of recovery, 4-week subacute toxicity; endpoint = haematocrit; result = 43.8 ± 1.1%
Compound = CC1(C)C(=O)N(c2ccc(C#N)c(C(F)(F)F)c2)C(=S)N1c1ccc(C(=O)O)c(F)c1; test system = male human, plasma; setting = oral, 160 mg, single dose, fasted; endpoint = Tmax; result = 96 h
Compound = C=Cc1c(C)c2cc3nc(c(CC(=O)[O-])c4[n-]c(cc5nc(cc1[n-]2)C(C)=C5CC)c(C)c4C(=O)[O-])C(CCC(=O)[O-])C3C.[Cu+2].[Na+].[Na+].[Na+] (stereo not shown); test system = Wistar rat; setting = oral, 28 days daily; endpoint = NOAEL; result = > 1000 mg/kg bw
